Experimental data of several laboratories.
A part holds a random share of what one study measured.
Sequence of UniProt P10721 (whole entry, unmodified, looked up): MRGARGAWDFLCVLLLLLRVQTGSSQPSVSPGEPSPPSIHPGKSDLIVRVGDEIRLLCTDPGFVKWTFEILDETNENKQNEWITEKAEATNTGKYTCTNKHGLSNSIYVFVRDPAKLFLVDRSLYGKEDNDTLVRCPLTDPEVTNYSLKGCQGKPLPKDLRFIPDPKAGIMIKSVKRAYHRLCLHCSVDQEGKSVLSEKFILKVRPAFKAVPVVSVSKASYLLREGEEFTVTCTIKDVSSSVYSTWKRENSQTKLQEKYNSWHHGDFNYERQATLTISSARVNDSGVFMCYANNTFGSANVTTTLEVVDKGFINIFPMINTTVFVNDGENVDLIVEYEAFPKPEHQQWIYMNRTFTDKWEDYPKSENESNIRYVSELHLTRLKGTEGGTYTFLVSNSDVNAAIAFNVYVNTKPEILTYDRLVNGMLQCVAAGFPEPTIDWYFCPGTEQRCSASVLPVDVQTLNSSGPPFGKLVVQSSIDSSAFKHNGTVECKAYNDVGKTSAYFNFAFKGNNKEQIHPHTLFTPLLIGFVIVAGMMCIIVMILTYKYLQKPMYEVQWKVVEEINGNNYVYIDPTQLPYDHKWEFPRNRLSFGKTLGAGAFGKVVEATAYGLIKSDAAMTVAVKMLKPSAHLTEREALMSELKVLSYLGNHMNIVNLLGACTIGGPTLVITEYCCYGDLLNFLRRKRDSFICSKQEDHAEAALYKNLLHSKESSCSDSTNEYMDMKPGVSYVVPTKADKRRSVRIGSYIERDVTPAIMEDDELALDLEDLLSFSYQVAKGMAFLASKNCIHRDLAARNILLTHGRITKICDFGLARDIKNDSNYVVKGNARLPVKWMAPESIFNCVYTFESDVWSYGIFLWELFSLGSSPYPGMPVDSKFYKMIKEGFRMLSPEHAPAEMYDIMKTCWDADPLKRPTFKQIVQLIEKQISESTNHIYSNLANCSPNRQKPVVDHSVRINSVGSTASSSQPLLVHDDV
Sequence of UniProt O96017 (whole entry, looked up): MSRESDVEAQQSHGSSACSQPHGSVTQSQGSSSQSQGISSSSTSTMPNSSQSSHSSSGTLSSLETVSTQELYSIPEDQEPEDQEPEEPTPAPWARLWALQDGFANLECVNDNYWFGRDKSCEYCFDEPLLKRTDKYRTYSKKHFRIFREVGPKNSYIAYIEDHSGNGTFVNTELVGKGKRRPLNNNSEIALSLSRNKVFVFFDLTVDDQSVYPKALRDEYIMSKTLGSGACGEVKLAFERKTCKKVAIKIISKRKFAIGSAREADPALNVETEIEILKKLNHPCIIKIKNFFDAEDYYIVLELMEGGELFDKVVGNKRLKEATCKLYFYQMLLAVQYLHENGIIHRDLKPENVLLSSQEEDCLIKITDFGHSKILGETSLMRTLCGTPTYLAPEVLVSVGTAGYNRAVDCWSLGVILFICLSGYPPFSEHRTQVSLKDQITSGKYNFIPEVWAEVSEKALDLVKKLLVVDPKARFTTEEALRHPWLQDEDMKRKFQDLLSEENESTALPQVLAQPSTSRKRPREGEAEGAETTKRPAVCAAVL
Sequence of UniProt Q12866 (whole entry, looked up): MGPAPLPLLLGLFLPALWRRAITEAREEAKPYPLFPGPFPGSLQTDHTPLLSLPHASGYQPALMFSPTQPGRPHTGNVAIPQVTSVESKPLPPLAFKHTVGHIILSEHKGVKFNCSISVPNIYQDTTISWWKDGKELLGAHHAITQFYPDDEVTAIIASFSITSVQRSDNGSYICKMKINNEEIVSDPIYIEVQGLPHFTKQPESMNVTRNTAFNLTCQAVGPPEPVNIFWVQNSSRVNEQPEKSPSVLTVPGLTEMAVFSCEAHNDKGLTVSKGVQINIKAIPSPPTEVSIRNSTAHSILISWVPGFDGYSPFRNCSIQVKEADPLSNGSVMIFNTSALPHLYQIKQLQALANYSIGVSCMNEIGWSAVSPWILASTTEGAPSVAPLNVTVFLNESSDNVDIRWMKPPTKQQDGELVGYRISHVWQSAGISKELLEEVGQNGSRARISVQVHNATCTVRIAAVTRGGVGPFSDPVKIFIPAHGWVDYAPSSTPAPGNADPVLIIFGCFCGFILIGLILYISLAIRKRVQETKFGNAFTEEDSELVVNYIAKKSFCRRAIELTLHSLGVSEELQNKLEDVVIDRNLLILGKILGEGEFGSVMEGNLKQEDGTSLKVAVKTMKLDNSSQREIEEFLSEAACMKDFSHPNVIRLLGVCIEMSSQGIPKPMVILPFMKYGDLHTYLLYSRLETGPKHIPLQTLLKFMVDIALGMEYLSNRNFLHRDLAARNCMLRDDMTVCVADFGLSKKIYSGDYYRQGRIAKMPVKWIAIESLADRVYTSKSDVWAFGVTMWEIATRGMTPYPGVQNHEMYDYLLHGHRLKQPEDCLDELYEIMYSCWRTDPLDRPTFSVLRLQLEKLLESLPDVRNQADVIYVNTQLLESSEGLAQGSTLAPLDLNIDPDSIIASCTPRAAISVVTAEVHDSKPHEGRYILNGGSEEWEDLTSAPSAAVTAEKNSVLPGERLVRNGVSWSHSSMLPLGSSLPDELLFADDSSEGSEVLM
Sequence of UniProt Q86UE8 (whole entry, looked up): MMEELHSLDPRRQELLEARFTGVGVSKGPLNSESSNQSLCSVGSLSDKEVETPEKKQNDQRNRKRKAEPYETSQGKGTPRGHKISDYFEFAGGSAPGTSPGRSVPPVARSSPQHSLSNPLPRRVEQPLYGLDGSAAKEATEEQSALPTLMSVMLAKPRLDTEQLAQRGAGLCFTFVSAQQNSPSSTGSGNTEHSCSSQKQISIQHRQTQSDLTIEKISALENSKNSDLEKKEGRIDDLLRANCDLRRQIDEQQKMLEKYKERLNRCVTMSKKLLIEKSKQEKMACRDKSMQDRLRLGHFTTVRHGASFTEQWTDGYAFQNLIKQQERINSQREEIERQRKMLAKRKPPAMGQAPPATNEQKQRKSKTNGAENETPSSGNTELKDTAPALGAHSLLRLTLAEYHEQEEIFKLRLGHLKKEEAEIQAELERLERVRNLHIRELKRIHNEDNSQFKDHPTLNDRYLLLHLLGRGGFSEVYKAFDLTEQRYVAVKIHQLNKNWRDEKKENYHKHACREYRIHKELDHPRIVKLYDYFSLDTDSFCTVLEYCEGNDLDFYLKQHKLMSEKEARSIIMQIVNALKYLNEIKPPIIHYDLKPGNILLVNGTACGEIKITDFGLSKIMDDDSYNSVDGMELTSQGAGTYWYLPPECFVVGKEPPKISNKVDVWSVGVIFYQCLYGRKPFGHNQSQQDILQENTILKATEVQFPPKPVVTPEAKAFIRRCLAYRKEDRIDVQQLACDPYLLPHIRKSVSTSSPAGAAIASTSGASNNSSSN
Sequence of UniProt P28482 (whole entry, looked up): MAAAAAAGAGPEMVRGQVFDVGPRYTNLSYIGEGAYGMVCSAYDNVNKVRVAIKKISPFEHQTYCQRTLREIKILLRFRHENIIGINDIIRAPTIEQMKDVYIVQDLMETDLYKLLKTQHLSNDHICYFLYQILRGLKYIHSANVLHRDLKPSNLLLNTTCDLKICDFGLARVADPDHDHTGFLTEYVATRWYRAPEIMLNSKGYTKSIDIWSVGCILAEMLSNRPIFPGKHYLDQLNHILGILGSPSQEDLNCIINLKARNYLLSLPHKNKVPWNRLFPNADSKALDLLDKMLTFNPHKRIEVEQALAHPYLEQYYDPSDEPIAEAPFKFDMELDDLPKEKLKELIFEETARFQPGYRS
Sequence of UniProt P41743 (whole entry, looked up): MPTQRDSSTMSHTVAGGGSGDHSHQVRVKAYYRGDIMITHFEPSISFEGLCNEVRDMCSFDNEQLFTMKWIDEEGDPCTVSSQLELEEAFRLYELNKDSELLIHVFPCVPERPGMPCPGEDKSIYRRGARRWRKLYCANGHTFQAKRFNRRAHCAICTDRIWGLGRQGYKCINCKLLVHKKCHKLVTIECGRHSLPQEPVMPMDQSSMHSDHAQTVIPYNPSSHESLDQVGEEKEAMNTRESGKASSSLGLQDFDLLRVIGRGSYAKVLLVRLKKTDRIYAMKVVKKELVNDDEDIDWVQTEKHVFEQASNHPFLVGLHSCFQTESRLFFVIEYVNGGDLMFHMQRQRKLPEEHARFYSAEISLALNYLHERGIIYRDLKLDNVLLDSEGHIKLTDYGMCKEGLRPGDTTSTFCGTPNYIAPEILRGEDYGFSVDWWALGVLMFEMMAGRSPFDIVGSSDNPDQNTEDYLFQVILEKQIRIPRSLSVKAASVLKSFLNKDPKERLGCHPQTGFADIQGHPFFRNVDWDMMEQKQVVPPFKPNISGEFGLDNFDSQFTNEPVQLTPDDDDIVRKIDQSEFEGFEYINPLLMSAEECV
Sequence of UniProt Q9HC98 (whole entry, looked up): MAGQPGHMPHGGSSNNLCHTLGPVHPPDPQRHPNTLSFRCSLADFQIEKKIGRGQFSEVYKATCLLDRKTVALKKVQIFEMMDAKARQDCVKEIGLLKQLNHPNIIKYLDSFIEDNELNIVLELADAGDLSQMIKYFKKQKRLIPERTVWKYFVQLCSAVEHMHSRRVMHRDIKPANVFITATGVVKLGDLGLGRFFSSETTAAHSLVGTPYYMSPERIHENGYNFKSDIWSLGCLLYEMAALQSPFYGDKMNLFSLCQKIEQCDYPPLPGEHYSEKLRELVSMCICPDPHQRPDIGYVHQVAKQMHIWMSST

Set 1
Cell line: A-375
Concentration: 100 µM
Time: 18 h
SMILES	viability
COc1cc2c(cc1OC)[C@@H]1Cc3ccc(OC)c(OC)c3CN1CC2	98.6%
Nc1ccc(S(=O)(=O)Nc2ncccn2)cc1	104%
NS(=O)(=O)c1cc(C2(O)NC(=O)c3ccccc32)ccc1Cl (centres unmarked)	87.5%
Cc1cc(CC(=O)O)n(C)c1C(=O)c1ccc(Cl)cc1	87.6%
S=P(N1CC1)(N1CC1)N1CC1	85.5%
CCS(=O)(=O)CCn1c([N+](=O)[O-])cnc1C	94.4%
O=C(O)c1cc(/N=N/c2ccc(O)c(C(=O)O)c2)ccc1O	91.3%
O=S(=O)(O)Oc1ccc(C(c2ccc(OS(=O)(=O)O)cc2)c2ccccn2)cc1	104%
C[C@H](CCC(=O)O)[C@H]1CC[C@H]2[C@@H]3C(=O)C[C@@H]4CC(=O)CC[C@]4(C)[C@H]3CC(=O)[C@]12C	84.5%
COc1cc2nc(N3CCN(C(=O)C4CCCO4)CC3)nc(N)c2cc1OC (centres unmarked)	57.9%
c1ccc2c(CC3=NCCN3)cccc2c1	77.4%

Set 2
Structure (SMILES): O=C(Nc1cccc(Nc2nccc(Nc3cccc(C(F)(F)F)c3)n2)c1)C1CC1
Read-out: enzyme activity
Action: inhibitor
Concentration: 0.5 µM
Baseline: control
target	remaining activity
MAP3K5 (Homo sapiens, UniProt Q99683)	111%
ARAF (Homo sapiens, UniProt P10398)	90.2%
MERTK (Homo sapiens, UniProt Q12866)	90.1%
WEE1 (Homo sapiens, UniProt P30291)	95.6%
ACVR1B (Homo sapiens, UniProt P36896)	110%
MST1R (Homo sapiens, UniProt Q04912)	92.6%
TBK1 (Homo sapiens, UniProt Q9UHD2)	91%
NEK1 (Homo sapiens, UniProt Q96PY6)	82.8%
ABL2 (Homo sapiens, UniProt P42684)	83.8%
GRK7 (Homo sapiens, UniProt Q8WTQ7)	101%
TAOK2 (Homo sapiens, UniProt Q9UL54)	92.4%
NEK6 (Homo sapiens, UniProt Q9HC98)	103%
CSNK1G3 (Homo sapiens, UniProt Q9Y6M4)	93.5%
JAK3 (Homo sapiens, UniProt P52333)	109%

Set 3
SMILES: O=C(Nc1ccc(Oc2ccc(F)cc2)cc1)N1CCc2ncccc2[C@H]1c1ccc(F)cc1
Concentration: 1 µM
target	assay	remaining binding
SLK (Homo sapiens, UniProt Q9H2G2)	cell-free assay, competition with immobilised ligand	100%
Mast/stem cell growth factor receptor Kit, autoinhibited (KIT, Homo sapiens, UniProt P10721)	cell-free assay, competition with immobilised ligand	91%
MYLK3 (Homo sapiens, UniProt Q32MK0)	cell-free assay, competition with immobilised ligand	80%
PIP5K1C (Homo sapiens, UniProt O60331)	cell-free assay, competition with immobilised ligand	96%
CDKL2 (Homo sapiens, UniProt Q92772)	cell-free assay, competition with immobilised ligand	77%
PIK3CA (Homo sapiens, UniProt P42336, M1043I)	cell-free assay, competition with immobilised ligand	89%
MAPK1 (Homo sapiens, UniProt P28482)	cell-free assay, competition with immobilised ligand	100%
MAP3K12 (Homo sapiens, UniProt Q12852)	cell-free assay, competition with immobilised ligand	100%
KIT (Homo sapiens, UniProt P10721, V559D)	cell-free assay, competition with immobilised ligand	100%
ALK (Homo sapiens, UniProt Q9UM73, L1196M)	cell-free assay, competition with immobilised ligand	100%
PRKCI (Homo sapiens, UniProt P41743)	cell-free assay, competition with immobilised ligand	100%
CHEK2 (Homo sapiens, UniProt O96017)	cell-free assay, competition with immobilised ligand	94%
COQ8A (Homo sapiens, UniProt Q8NI60)	cell-free assay, competition with immobilised ligand	100%
TRPM6 (Homo sapiens, UniProt Q9BX84)	cell-free assay, competition with immobilised ligand	100%
CDKL3 (Homo sapiens, UniProt Q8IVW4)	cell-free assay, competition with immobilised ligand	82%
MUSK (Homo sapiens, UniProt O15146)	cell-free assay, competition with immobilised ligand	92%
PIP4K2C (Homo sapiens, UniProt Q8TBX8)	cell-free assay, competition with immobilised ligand	94%
ACVRL1 (Homo sapiens, UniProt P37023)	binding, competition with immobilised ligand	81%
Insulin receptor (INSR, Homo sapiens, UniProt P06213)	cell-free assay, competition with immobilised ligand	86%
TLK2 (Homo sapiens, UniProt Q86UE8)	cell-free assay, competition with immobilised ligand	100%
MAP3K20 (Homo sapiens, UniProt Q9NYL2)	cell-free assay, competition with immobilised ligand	100%
CDC42BPG (Homo sapiens, UniProt Q6DT37)	competition binding	93%
Tyrosine-protein kinase ABL1, phosphorylated (ABL1, Homo sapiens, UniProt P00519, H396P)	cell-free assay, competition with immobilised ligand	92%
WNK1 (Homo sapiens, UniProt Q9H4A3)	cell-free assay, competition with immobilised ligand	96%
TESK1 (Homo sapiens, UniProt Q15569)	cell-free assay, competition with immobilised ligand	100%

Set 4
Target: Calcium/calmodulin-dependent protein kinase type II subunit alpha (CAMK2A, Homo sapiens, UniProt Q9UQM7)
Sequence of UniProt Q9UQM7 (whole entry, looked up): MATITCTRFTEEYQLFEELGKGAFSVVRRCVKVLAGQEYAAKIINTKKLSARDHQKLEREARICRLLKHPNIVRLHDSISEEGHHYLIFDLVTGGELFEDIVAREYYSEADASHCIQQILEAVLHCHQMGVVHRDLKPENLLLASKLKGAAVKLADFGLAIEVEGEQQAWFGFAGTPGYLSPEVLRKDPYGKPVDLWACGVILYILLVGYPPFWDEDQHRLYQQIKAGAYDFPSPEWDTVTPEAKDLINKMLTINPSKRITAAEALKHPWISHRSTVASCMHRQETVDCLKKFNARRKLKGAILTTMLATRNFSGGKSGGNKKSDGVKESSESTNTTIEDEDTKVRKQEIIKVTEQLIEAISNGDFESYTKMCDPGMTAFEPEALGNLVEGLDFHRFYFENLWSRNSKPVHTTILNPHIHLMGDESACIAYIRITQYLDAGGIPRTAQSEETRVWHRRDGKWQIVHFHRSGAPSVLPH
Read-out: enzyme activity
Action: inhibitor
Concentration: 10 µM
Compound	inhibition
COc1cc(-c2coc3cc4c(c(O)c3c2=O)OCO4)cc(O)c1OC	9%
O=C(OC[C@H]1O[C@@H](OC(=O)c2cc(O)c(O)c(O)c2)[C@H](OC(=O)c2cc(O)c(O)c(O)c2)[C@@H](OC(=O)c2cc(O)c(O)c(O)c2)[C@@H]1OC(=O)c1cc(O)c(O)c(O)c1)c1cc(O)c(O)c(O)c1	-72%
OC[C@H]1O[C@@H](Oc2cc(O)ccc2/C=C/c2cc(O)cc(O)c2)[C@H](O)[C@@H](O)[C@@H]1O	-6%
O=c1[nH]cnc2c1ncn2[C@H]1C[C@H](O)[C@@H](CO)O1	5%
Cc1oc(=O)oc1CN1CCN(c2cc3c(cc2F)c(=O)c(C(=O)O)c2n3C(C)S2)CC1 (centres unmarked)	-3%
O=C(O[C@@H]1[C@@H](O)[C@H](Oc2cc(O)c(C(=O)CCc3ccccc3)c(O)c2)O[C@@H]2COC(=O)c3cc(O)c(O)c(O)c3-c3c(cc(O)c(O)c3O)C(=O)O[C@@H]12)c1cc(O)c(O)c(O)c1	62%
CN1CCN(c2ccc(C(=O)Nc3n[nH]c4ccc(Cc5cc(F)cc(F)c5)cc34)c(NC3CCOCC3)c2)CC1	-1%
C[C@@H]1O[C@@H](O[C@H]2[C@H](Oc3cc(O)c(C(=O)CCc4ccc(O)cc4)c(O)c3)O[C@H](CO)[C@@H](O)[C@@H]2O)[C@H](O)[C@H](O)[C@H]1O	-17%
C[C@H](CO[C@@H]1O[C@H](CO)[C@@H](O)[C@H](O)[C@H]1O)[C@H]1CC[C@@]2(CC[C@]3(C)[C@H](CC[C@@H]4[C@@]5(C)CC[C@H](O[C@@H]6O[C@H](CO)[C@@H](O)[C@H](O)[C@H]6O[C@@H]6O[C@H](CO)[C@@H](O)[C@H](O)[C@H]6O)[C@@](C)(CO)[C@@H]5CC[C@]43C)[C@H]2O)CO1	-6%
